Assay results collected from several papers.
Each line is one published result; not all experiments were run side by side. Numbers after ± are the reported error. Converted amounts (≈) assume the structure as drawn.
NPR2: Atrial natriuretic peptide receptor 2 (NPR2, Homo sapiens, UniProt P20594)
UniProt P20594, sequence (whole entry, looked up): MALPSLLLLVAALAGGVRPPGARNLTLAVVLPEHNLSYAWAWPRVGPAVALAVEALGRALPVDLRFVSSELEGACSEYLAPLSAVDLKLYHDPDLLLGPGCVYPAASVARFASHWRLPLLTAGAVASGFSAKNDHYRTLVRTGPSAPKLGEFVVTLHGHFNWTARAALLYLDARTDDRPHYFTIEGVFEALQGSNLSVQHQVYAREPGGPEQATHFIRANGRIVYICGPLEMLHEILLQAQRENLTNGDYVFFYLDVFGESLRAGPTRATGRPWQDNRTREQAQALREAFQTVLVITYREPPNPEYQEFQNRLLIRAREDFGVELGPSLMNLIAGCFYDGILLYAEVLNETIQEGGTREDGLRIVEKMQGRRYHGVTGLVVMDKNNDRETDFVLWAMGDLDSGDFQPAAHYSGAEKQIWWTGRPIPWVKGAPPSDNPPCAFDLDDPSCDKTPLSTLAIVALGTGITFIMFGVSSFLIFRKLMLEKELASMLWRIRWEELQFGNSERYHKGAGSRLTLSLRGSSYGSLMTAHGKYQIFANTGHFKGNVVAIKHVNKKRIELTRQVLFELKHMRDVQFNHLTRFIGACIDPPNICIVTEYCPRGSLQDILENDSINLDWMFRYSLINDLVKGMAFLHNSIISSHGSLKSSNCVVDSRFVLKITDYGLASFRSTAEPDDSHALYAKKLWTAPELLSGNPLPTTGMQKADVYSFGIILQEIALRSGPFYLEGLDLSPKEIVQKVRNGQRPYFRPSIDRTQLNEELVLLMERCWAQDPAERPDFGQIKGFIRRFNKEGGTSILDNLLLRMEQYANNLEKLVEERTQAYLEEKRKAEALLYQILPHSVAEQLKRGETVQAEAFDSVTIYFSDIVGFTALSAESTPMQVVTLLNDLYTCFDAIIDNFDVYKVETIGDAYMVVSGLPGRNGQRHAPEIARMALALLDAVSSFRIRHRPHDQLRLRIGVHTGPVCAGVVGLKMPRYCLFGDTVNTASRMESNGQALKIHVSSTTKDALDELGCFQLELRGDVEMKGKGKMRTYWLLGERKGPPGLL
S1PR2: Sphingosine 1-phosphate receptor 2 (S1PR2, Homo sapiens, UniProt O95136)
UniProt O95136, sequence (whole entry, looked up): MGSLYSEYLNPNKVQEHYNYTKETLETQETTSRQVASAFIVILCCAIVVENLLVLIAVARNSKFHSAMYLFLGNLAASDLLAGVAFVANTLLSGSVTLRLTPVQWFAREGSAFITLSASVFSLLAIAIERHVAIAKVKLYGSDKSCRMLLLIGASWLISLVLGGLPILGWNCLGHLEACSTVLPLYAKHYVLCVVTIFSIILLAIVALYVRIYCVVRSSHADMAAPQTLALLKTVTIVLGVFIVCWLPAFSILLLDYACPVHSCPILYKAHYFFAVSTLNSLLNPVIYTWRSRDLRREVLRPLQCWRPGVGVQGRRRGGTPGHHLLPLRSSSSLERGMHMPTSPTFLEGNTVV
TLR4: Toll-like receptor 4 (TLR4, Homo sapiens, UniProt O00206)
UniProt O75762, sequence (whole entry, unmodified, looked up): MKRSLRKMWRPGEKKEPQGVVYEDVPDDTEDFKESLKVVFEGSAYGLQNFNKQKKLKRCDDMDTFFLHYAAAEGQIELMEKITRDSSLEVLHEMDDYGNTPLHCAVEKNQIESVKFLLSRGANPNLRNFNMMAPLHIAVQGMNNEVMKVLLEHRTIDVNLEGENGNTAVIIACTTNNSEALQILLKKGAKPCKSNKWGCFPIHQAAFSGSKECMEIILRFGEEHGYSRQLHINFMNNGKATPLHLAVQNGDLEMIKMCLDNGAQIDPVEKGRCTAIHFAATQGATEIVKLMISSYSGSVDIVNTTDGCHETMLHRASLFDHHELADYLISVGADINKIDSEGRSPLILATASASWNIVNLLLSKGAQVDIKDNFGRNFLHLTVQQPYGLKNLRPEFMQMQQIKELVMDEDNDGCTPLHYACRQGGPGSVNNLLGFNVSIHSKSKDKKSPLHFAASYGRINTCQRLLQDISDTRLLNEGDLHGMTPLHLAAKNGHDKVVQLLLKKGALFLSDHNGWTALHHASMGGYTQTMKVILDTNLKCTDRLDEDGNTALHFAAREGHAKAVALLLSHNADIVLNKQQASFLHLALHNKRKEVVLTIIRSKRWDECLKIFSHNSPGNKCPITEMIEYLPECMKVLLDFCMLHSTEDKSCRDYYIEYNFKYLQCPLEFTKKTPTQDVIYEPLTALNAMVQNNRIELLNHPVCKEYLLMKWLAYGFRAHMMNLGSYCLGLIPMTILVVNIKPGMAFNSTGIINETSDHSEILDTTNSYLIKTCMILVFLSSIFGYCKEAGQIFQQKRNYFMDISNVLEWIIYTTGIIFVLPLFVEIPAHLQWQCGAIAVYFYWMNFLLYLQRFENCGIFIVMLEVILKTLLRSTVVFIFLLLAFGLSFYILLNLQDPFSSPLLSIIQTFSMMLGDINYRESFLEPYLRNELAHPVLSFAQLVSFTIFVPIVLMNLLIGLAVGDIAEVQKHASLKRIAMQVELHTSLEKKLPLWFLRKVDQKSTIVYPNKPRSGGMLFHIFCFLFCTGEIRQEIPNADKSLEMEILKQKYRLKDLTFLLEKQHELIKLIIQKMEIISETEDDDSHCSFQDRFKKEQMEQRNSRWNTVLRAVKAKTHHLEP
UniProt O00206, sequence (whole entry, looked up): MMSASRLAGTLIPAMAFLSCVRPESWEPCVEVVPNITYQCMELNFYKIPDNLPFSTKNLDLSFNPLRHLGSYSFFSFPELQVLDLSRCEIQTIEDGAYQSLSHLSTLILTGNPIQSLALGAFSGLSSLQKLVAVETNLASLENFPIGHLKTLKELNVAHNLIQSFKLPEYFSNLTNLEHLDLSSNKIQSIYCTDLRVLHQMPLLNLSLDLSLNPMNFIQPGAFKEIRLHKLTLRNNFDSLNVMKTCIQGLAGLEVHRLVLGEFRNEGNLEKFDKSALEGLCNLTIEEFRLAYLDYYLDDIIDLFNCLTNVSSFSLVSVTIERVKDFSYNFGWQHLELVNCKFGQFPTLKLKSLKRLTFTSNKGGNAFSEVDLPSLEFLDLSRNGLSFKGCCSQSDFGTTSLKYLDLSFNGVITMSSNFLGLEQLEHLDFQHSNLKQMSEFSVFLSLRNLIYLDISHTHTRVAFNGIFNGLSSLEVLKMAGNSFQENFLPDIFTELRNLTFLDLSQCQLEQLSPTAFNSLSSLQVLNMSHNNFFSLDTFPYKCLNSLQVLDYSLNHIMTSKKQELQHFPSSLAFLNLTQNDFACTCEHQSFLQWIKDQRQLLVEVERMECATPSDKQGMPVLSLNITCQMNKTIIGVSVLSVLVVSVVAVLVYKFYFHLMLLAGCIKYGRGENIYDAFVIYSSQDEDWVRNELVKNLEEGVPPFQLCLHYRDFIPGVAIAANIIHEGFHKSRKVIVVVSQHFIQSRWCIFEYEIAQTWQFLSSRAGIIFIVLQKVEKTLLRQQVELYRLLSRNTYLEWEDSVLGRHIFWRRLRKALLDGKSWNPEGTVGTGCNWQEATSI
UniProt Q8NEC5, sequence (whole entry, looked up): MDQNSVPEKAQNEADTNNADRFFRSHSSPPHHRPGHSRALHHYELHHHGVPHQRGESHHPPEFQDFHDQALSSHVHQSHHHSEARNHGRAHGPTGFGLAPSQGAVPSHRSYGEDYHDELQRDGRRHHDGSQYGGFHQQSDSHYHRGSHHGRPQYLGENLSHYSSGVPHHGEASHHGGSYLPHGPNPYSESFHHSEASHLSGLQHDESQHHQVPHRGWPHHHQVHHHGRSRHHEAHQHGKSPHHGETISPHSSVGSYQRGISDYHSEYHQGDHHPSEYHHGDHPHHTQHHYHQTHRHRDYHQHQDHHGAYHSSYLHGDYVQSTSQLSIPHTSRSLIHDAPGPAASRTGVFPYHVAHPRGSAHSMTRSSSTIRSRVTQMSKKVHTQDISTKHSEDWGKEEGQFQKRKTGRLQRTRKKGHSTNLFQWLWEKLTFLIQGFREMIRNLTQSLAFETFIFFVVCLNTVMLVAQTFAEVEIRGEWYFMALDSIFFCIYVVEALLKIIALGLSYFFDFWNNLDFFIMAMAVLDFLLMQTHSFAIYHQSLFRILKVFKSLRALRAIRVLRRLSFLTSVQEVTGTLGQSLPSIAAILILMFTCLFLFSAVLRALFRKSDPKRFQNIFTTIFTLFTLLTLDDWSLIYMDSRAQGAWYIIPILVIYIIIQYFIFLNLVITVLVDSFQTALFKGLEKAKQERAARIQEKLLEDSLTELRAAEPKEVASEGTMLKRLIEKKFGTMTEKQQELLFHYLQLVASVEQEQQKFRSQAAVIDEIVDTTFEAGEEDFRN
UniProt Q86XQ3, sequence (whole entry, looked up): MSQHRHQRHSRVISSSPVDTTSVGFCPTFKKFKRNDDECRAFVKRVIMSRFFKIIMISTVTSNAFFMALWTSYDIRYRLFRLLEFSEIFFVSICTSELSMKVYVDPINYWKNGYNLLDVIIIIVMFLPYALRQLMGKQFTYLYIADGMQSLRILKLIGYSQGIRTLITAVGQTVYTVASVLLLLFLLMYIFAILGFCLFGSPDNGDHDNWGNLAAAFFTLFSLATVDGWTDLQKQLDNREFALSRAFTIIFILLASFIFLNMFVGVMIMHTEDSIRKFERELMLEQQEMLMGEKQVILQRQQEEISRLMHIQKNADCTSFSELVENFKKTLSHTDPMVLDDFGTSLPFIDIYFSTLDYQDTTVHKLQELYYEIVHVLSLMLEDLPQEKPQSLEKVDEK
UniProt Q7RTX7, sequence (whole entry, looked up): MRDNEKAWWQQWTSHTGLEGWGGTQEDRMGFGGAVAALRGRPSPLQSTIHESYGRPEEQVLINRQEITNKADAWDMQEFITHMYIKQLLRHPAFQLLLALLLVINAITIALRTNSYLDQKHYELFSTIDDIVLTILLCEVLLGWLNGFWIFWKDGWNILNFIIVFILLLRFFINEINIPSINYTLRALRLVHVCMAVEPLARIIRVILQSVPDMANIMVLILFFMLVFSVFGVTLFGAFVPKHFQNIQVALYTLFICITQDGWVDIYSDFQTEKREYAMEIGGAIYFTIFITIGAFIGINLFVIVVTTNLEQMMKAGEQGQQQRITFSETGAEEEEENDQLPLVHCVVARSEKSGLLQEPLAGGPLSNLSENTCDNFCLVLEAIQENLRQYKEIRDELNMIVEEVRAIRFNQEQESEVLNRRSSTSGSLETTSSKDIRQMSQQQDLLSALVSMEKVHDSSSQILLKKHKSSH

The Emax of O=C(CNC(=O)c1ccc(O)c(-c2ccc(Cl)c(Cl)c2)c1)NCCc1ccc(Cl)c(Cl)c1 is reported as 100% (Probable G-protein coupled receptor 132 (Gpr132, Mus musculus, UniProt Q9Z282); β-arrestin association, agonist, PathHunter; mouse GPR132; reference: compound).
N#CCCN1CCN(C(=S)c2ccc(-c3ccccc3F)o2)CC1 has an Emax of 96% (NPR2; HTRF, refers to: cGMP; HEK293 overexpressing GC-B; together with: subthreshold CNP; reference: saturating CNP).
With [64Cu+2].c1ccc(CNCc2ccc(CN3CCCN4CCNCCCN(CC4)CC3)cc2)nc1 the tissue uptake was 1.22 ± 0.41 %ID/g (CXCR4; NOD/SCID mouse, U87 and U87-stb-CXCR4 xenografts, bladder; iv, 480 min, ex vivo).
For CC[C@H](C)[C@H](NC(=O)[C@H](Cc1c[nH]cn1)NC(=O)[C@H](CCCNC(=N)N)NC(=O)[C@H](CCCNC(=N)N)NC(=O)[C@H](CCCNC(=N)N)NC(C)=O)C(=O)N[C@H](C(=O)N[C@@H](CCCNC(=N)N)C(=O)N[C@@H](CCCCN)C(=O)N[C@@H](CCCNC(=N)N)C(=O)N[C@H](C(=O)N[C@@H](CC(C)C)C(=O)N[C@@H](CCCNC(=N)N)C(=O)N[C@@H](CCCNC(=N)N)C(=O)N[C@@H](CC(C)C)C(=O)N[C@@H](CC(C)C)C(=O)N[C@@H](CCC(N)=O)C(N)=O)[C@@H](C)O)C(C)C, “fold reduction of binding” read about 500 (PC/PS 2:1 vesicles; concentration not given, KCl 100 to 300 mM).
The Emax of Cc1cc(C(=O)Cn2cc(C(F)(F)F)ccc2=O)c(C)n1Cc1ccccc1 is reported as 100% (S1PR2; reporter gene, agonist).
For N=C(N)NCCC[C@@H]1NC(=O)[C@H](Cc2c[nH]c3ccccc23)NC(=O)[C@@H](CC2CCCCC2)NC(=O)[C@@H]2CCCN2C(=O)[C@@H](NC(=O)CCc2ccccc2)CCCNC1=O, the MRT(0-inf) was 1.07 h (C57BL/6J mouse, plasma plasma; subcutaneous, 1 mg/kg single dose).
For Cc1ccc2nc(-c3ccc4nc(-c5ccc(N(C)C(=O)c6ccc7ccccc7c6)cc5)sc4c3)sc2c1S(=O)(=O)O, the DNA binding was 35 ± 23% (SYBR Green I displacement; DNA substrate; 100 µM).
For CCN(CC)CCCSC(=S)N1CCN(C(=O)/C=C/c2coc3ccc(F)cc3c2=O)CC1, the inactivation effect was 62.4 ± 2.6% (tomato spotted wilt virus; viral infection, half-leaf method; Nicotiana glutinosa; 500 µg/mL).
The Emax of CC(C)C[C@H](NC(=O)[C@H](CCCNC(=N)N)NC(=O)CNC(=O)CNC(=O)[C@H](CO)NC(=O)[C@H](Cc1c[nH]cn1)NC(=O)[C@H](Cc1c[nH]c2ccccc12)NC(=O)[C@H](CO)NC(=O)CNC(=O)[C@H](Cc1c[nH]c2ccccc12)NC(=O)CNC(=O)[C@H](C)NC(=O)[C@@H](NC(=O)[C@H](CCC(N)=O)NC(=O)[C@H](CS)NC(=O)[C@H](CCCNC(=N)N)NC(=O)[C@@H](NC(=O)CN)[C@@H](C)O)C(C)C)C(=O)N[C@@H](CO)C(=O)N[C@@H](CCCNC(=N)N)C(=O)N[C@@H](Cc1ccccc1)C(=O)N1CCC[C@H]1C(=O)N[C@@H](CCCNC(=N)N)C(=O)N[C@@H](Cc1ccccc1)C(=O)N[C@H](C(=O)N[C@@H](CC(N)=O)C(=O)N[C@H](C(=O)O)C(C)C)C(C)C is reported as 0% (TLR4; reporter gene, agonist; HEK-Blue hTLR4).
With CCN(CC)CCCSC(=S)N1CCN(C(=O)/C=C/c2coc3cc(F)ccc3c2=O)CC1 the EC50 was 236 ± 8.5 µg/mL (≈ 479 µM) (tomato spotted wilt virus; virus inactivation, half-leaf method; Nicotiana glutinosa; tested 31.25 to 500 µg/mL).
With CC[C@H](C)[C@H](NC(=O)[C@H](CC(C)C)NC(=O)[C@H](C)NC(=O)CNC(=O)CNC(=O)[C@H](CS)NC(=O)[C@H](Cc1ccccc1)NC(=O)[C@H](Cc1c[nH]cn1)NC(=O)[C@H](CCCNC(=N)N)NC(=O)CNC(=O)[C@H](CCC(N)=O)NC(=O)[C@@H](N)CC(N)=O)C(=O)N[C@@H](Cc1c[nH]cn1)C(=O)N[C@@H](C)C(=O)N[C@@H](CCCNC(=N)N)C(=O)N[C@@H](Cc1ccccc1)C(=O)N[C@H](C(=O)N[C@@H](CCSC)C(=O)N[C@H](C(=O)N[C@@H](C)C(=O)N[C@@H](C)C(=O)N[C@@H](CO)C(=O)N[C@@H](CS)C(=O)N[C@@H](Cc1ccccc1)C(=O)N[C@@H](CCC(N)=O)C(=O)O)[C@@H](C)O)C(C)C the Emax was 15% (TLR4; reporter gene, agonist; HEK-Blue hTLR4).
The Emax of N#CCCN1CCN(C(=S)c2ccc(-c3ccccc3)o2)CC1 is reported as 60% (NPR2; HTRF, refers to: cGMP; HEK293 overexpressing GC-B; together with: subthreshold CNP; reference: saturating CNP).
O=C(NC[C@@H](Cc1ccccc1)N1CCC(O)(C(F)(F)F)CC1)C1(c2ccc(Cl)cc2)CCCC1 gave an Emax of 26 ± 0.9% (Transient receptor potential cation channel subfamily A member 1 (TRPA1, Homo sapiens, UniProt O75762); calcium influx, agonist; HEK293F transfected; reference: AITC 300 µM).
Cc1cc(C(=O)Cn2cc(C(F)(F)F)ccc2=O)c(C)n1-c1ccccc1 has an Emax of 0% (S1PR2; reporter gene, agonist).
C/C(=C\CC[C@@]1(C)[C@@H]2C=C(CO)CC[C@@H]21)CO has an Emax of 102% (CatSper channel complex (Homo sapiens, UniProt Q7RTX7+Q86XQ3+Q8NEC5+Q96P56); calcium influx, activator, FLIPR Fluo-4; human sperm; 3 µM; reference: saturating progesterone).
The Emax of N#CCCN1CCN(C(=S)c2ccc(-c3cccc(Cl)c3)o2)CC1 is reported as 80% (NPR2; HTRF, refers to: cGMP; HEK293 overexpressing GC-B; together with: subthreshold CNP; reference: saturating CNP).
The Emax of Cc1cc(C(=O)Cn2ccccc2=O)c(C)n1Cc1ccccc1 is reported as 10% (S1PR2; reporter gene, agonist).
O=C(NC[C@@H](Cc1ccc(F)cc1)N1CCC(O)(C(F)(F)F)CC1)C1(c2ccc(Cl)cc2)CCCC1 gave an Emax of 0.39 ± 0.04 (Transient receptor potential cation channel subfamily A member 1 (TRPA1, Homo sapiens, UniProt O75762, I890V); calcium influx, agonist; HEK293F transfected; I890V variant, unit not given; reference: AITC).

For quick reference, copied from above:
The Emax of N#CCCN1CCN(C(=S)c2ccc(-c3cccc(Cl)c3)o2)CC1 is reported as 80% (NPR2; HTRF, refers to: cGMP; HEK293 overexpressing GC-B; together with: subthreshold CNP; reference: saturating CNP).
The Emax of Cc1cc(C(=O)Cn2ccccc2=O)c(C)n1Cc1ccccc1 is reported as 10% (S1PR2; reporter gene, agonist).
O=C(NC[C@@H](Cc1ccc(F)cc1)N1CCC(O)(C(F)(F)F)CC1)C1(c2ccc(Cl)cc2)CCCC1 gave an Emax of 0.39 ± 0.04 (Transient receptor potential cation channel subfamily A member 1 (TRPA1, Homo sapiens, UniProt O75762, I890V); calcium influx, agonist; HEK293F transfected; I890V variant, unit not given; reference: AITC).
